# Experimental data of several laboratories.
# Several values in a cell are separate wells, animals, samples, runs or records. ± gives the spread as reported.
SMILES,system,conditions,how to read,measurement,value
O=c1[nH]c(=O)n([C@@H]2O[C@H](CO)[C@@H](O)[C@@H]2F)cc1CCCC[18F],"nude mice, RG2 tumour, HSV1-tk expressing RG2 tumour",2 h post injection,,tumour uptake,0.16 ± 0.03 %ID/g
NCc1cc2c(cc1F)C(=O)N(C1CCC(=O)NC1=O)C2 (stereo not drawn),"mice, HCC PDX models","oral, 100 mg/kg twice daily, four additional models",,tumour growth inhibition,16 to 33%
O=c1[nH]c(=O)n([C@@H]2O[C@H](CO)[C@@H](O)[C@@H]2F)cc1CCCCC[18F],"nude mice, RG2 tumour, wild-type RG2 tumour",2 h post injection,,tumour uptake,0.1 ± 0.03 %ID/g
C=CC(=O)Nc1cc(Nc2ncc(C(=O)OC(C)C)c(-c3cn(C)c4ccccc34)n2)c(OC)cc1N(C)CCN(C)C,"NCI-H2073 EGFR SVD knock-in xenograft, BALB/c nude mice","30 mg/kg once daily, 21 days",,tumour growth inhibition,95.2%
O=c1[nH]c(=O)n([C@@H]2O[C@H](CO)[C@@H](O)[C@@H]2F)cc1[125I],"nude mice, RG2 tumour, HSV1-tk expressing RG2 tumour",2 h post injection,,tumour uptake,4.3 %ID/g and 4.37 %ID/g
N=C(N)NCCC[C@@H](NC(=O)CCOCCOCCNC(=O)[C@H](CCCCNC(=O)CC[C@H](NC(=O)c1ccc(NCc2cnc3nc(N)[nH]c(=O)c3n2)cc1)C(=O)O)NC(=O)CO/N=C/[C@H](F)[C@@H](O)[C@H](O)[C@H](O)CO)C(=O)NCC(=O)N[C@H](CC(=O)O)C(N)=O [fluorine-18 labelled],"nude mice, MDA-MB-231 xenograft, tumour","2.5 h, added: unlabelled folic acid 200 µg",,tumour uptake,0.88 ± 0.3 %ID/g
C[C@@H]1COCCN1c1cc([C@]2(O)C[C@H]3CC[C@@H](C2)O3)c2cnn(-c3cc[nH]n3)c2n1,LoVo xenograft mice,"15 mg/kg once daily for 7 days, day 17",,tumour growth inhibition,75.7 ± 5.4%
COc1cc(N2CCC(N3CCN(C)CC3)CC2)ccc1Nc1ncc(Cl)c(Nc2ccccc2P(C)(C)=O)n1,"nude mice, NCI-H3122 xenograft","intraperitoneal, 10 mg/kg every other day, day 16",,tumour volume,387 mm3 and 438 mm3 and 567 mm3 and 494 mm3 and 683 mm3
O=c1[nH]c(=O)n([C@@H]2O[C@H](CO)[C@@H](O)[C@@H]2F)cc1CCC[18F],"nude mice, RG2 tumour, wild-type RG2 tumour",2 h post injection,,tumour uptake,0.19 ± 0.1 %ID/g
C=CCn1c(=O)c2cnc(Nc3ccc(N4CCN(C)CC4)cc3)nc2n1-c1ccc2c(n1)[C@@](O)(CC)CC2,"SW-620 xenograft, BALB/c nude mice","oral, 80 mg/kg, day 20, once daily x 21",,tumour growth inhibition,42.5%
CCNc1nc2c(c(N3CC(=O)Nc4cc(OC)ccc43)n1)CCC2,"mice, A-375/TxR xenograft","intravenous, 2 mg/kg twice weekly, 3 weeks",relative to: vehicle,tumour weight decrease,47.4%
C=C1CC[C@H](OCCCNC(=O)CCOCCOCCOCCOCCOCCOCCOCCOCCOCCOCCOCCOCCOCCOCCOCCOCCOCCOCCOCCOCCOCCOCCOCCOCCOCCOCCOCCOCCOCCOCCOCCOCCOCCOCCOCCOCCNC(=O)CCN2C(=O)CC(SC[C@H](NC(=O)[C@H](CCCNC(=N)N)NC(=O)[C@@H]3CCCN3C(=O)[C@H](CCC(N)=O)NC(=O)[C@H](CC(C)C)NC(=O)[C@H](CCCCN)NC(=O)[C@H](C)NC(=O)[C@@H]3CCCN3C(=O)[C@@H]3CCCN3C(=O)[C@H](CCCCN)NC(=O)[C@H](CCCCN)NC(=O)[C@H](CO)NC(=O)[C@H](CCC(=O)O)NC(=O)[C@H](CCCCN)NC(=O)[C@H](CCCNC(=N)N)NC(=O)[C@H](CCC(N)=O)NC(=O)[C@H](CCC(N)=O)NC(=O)[C@@H](NC(=O)[C@H](CCCNC(=N)N)NC(=O)[C@H](CCC(N)=O)NC(=O)[C@H](Cc3c[nH]cn3)NC(=O)[C@H](CCC(=O)O)NC(=O)[C@@H]3CCCN3C(=O)[C@H](CO)NC(=O)[C@H](CC(C)C)NC(=O)[C@H](Cc3ccccc3)NC(=O)[C@H](CNC(=O)CCCCCCC)NC(=O)[C@H](CO)NC(=O)CN)C(C)C)C(=O)O)C2=O)C/C1=C/C=C1\CCC[C@]2(C)[C@@H]([C@H](C)CCCC(C)(C)O)CC[C@@H]12 (stereo partly drawn),"mice, LLC tumour-bearing",dose not given,relative to: pair-fed tumour-bearing,tumour mass,no effect

# A few entries again:
SMILES,system,conditions,how to read,measurement,value
C=CC(=O)Nc1cc(Nc2ncc(C(=O)OC(C)C)c(-c3cn(C)c4ccccc34)n2)c(OC)cc1N(C)CCN(C)C,"NCI-H2073 EGFR SVD knock-in xenograft, BALB/c nude mice","30 mg/kg once daily, 21 days",,tumour growth inhibition,95.2%
